Experimental data gathered from unrelated publications.
A part holds a random share of what one study measured. Substitutions count along the parent as printed.

Study 1 — method: Spec-seq; molecule type: double-stranded DNA, one strand shown; sample: in vitro; tested at: not given; setting: whole probe, mean of replicates; baseline: not given; reading: lower = stronger binding; constant ends, left off below: GAGTCGTCTCGTCAGCAC … CCGTAGAGCACTCAGGTC
Target: POU domain, class 5, transcription factor 1, POU domain (Pou5f1, Mus musculus, UniProt P20263, residues 131-289)
Sequence of UniProt P20263 (131-289, looked up): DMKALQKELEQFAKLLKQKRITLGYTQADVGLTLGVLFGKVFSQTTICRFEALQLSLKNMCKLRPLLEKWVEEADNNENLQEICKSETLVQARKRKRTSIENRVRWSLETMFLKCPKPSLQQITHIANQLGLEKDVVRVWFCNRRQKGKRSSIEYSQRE
Oligonucleotide	relative binding energy
ATGCGGGA	0.409 ln ratio
ATGCGACG	0.315 ln ratio
ATGTAAAT	-1.87 ln ratio
ATAACGAT	0.336 ln ratio
ATGCGGAT	0.25 ln ratio
GATATAAT	0.181 ln ratio
ATTAACAT	-2.81 ln ratio
ATGCGAAG	0.32 ln ratio
CGCTTAAT	0.635 ln ratio

Study 2 — method: protein binding microarray; molecule type: double-stranded DNA, one strand shown; sample: in vitro; tested at: not given; baseline: not given; reading: higher = stronger binding
Target: Histone acetyltransferase KAT6A, winged helix 1, GST fusion (KAT6A, Homo sapiens, UniProt Q92794, residues 1-85)
Setting: 8-mer, flanks averaged, mean of 2 arrays, mostly near background
Residues (chain): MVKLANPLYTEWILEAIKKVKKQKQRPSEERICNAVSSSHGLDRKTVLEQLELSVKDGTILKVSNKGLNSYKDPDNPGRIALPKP
Oligonucleotide	E-score
CATGTGGC	-0.00133
GGTGCCTA	-0.128
AAAATACA	-0.123
GCGTAGAA	0.114
CGTTCCGA	0.0279
AGGGGCCC	-0.0644
ACGATTCT	-0.114
ACTGGAGG	-0.0285
ATTACATG	0.0649

Study 3 — target: CCNB3, cyclin fold, Cln2 fusion (human); method: yeast growth competition, sequencing; sample: yeast; setting: weak parent motif; baseline: not given; reading: higher = stronger binding
Starting sequence: CDC6 docking peptide (human); TLKGRRLVFDNQL; partner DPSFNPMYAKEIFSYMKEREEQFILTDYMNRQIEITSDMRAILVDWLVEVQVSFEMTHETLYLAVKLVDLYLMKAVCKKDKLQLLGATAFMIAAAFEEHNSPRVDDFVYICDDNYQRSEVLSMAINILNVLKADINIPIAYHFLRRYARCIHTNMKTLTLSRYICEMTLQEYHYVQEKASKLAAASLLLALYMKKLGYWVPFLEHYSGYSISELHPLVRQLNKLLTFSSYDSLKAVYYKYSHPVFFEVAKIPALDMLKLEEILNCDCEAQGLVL
Variant	normalised enrichment score
L2C	0.102
R5F	0.0737
L7N	-0.12
R6F	-0.179
T1Q	-0.17
D10Y	0.217

Further values, each from its own experiment
Substance	target	assay	system	conditions	how to read	measurement	value
PhoQ, residues 284 288 289 292 302 303 SSCLAV	PhoP, residues 12 14 15 18 19 VQGLL (Escherichia coli, UniProt P23836)	Sort-seq, measured: YFP reporter	E. coli	PhoQ-PhoP variant library, with: 10 µM Mg2+	baseline: high Mg2+ state, higher = stronger signaling	fold induction	11.5

A few entries again (study 3):
Variant	normalised enrichment score
T1Q	-0.17
L2C	0.102
R6F	-0.179
